Measured values from different studies.
Compare with care: the assays were run in different laboratories. “And” joins repeats or separate records; there may be more than shown.
Target: Serine/threonine-protein kinase Nek3 (NEK3, Homo sapiens, UniProt P51956)
Residues used in one study (P51956 1-506): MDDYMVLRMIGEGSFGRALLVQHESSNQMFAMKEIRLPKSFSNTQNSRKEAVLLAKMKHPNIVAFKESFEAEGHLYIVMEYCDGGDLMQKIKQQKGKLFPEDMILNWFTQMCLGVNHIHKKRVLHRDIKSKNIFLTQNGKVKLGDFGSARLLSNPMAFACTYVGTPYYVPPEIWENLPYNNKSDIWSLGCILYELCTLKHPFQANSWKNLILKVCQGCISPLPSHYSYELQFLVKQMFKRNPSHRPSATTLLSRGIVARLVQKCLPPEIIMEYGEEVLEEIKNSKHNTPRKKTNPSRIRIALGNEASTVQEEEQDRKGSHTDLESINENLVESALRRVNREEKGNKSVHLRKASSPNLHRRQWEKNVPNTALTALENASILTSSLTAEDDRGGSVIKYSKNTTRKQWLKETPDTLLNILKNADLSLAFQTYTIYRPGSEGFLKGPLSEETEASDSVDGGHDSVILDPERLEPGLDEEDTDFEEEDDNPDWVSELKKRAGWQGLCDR

SMILES = Cc1ccc(-c2c(/C=C(\C#N)C(=O)NC(C)C)n(CCCO)c3ncnc(N)c23)cc1; test = cell-free assay, competition with immobilised ligand; setting = 1 µM; quantity = remaining binding; value = 73%
SMILES = COc1cc(Nc2nc(C)cc(-c3cnn4nc(OC)ccc34)n2)cc(C(F)(F)F)c1; test = inhibitor; setting = 1 µM; how to read = relative to: control; quantity = remaining activity; value = 92%
SMILES = C=CC(=O)N1CCc2ccc(-n3c(=O)ccc4cnc5ccc(-c6cnn(C)c6)cc5c43)cc21; test = KINOMEscan; setting = 1 µM; how to read = relative to: DMSO control; quantity = remaining binding; value = 82%
SMILES = CC(C)=CC1OC(C)(C)C2C=C3C(=O)C(Cl)=CC(O)C3C3C(O)C4OC4C(=O)C132 (centres unmarked); test = cell-free assay, competition with immobilised ligand; setting = 10 µM; quantity = remaining binding; value = 62%
SMILES = COc1ccc(C(=O)/C=C/c2ccccc2-c2c[nH]c3ccc(C#N)cc23)c(O)c1; test = enzyme activity, inhibitor; setting = 20 µM; quantity = inhibition; value = -1%
SMILES = Cc1nc2c(F)cc(-c3nc(Nc4ccc(CNC(=O)CCCCCCC(=O)NO)cc4)ncc3F)cc2n1C(C)C; test = enzyme activity, inhibitor; setting = 1 µM; quantity = inhibition; value = 88%
SMILES = CS(=O)(=O)Nc1cccc(-c2csc3cnc(Nc4ccc(N5CCN(CCCCCOc6cccc7c6C(=O)N(C6CCC(=O)NC6=O)C7=O)CC5)cc4)nc23)c1 (centres unmarked); test = probe labelling, inhibitor, KiNativ chemoproteomics; system = MOLT-4; setting = 1 µM; quantity = inhibition; value = 57.9%
SMILES = COCC12C(=O)NC3C4(C(OC)CC1O)C1CC5(O)C(OC)C(O)C(OC(C)=O)(C1C5OC(=O)c1ccccc1)C3(O)C(OC)C24 (centres unmarked); test = kinase activity, inhibitor, ProQinase kinase profiling; setting = 25 µM; how to read = relative to: control; quantity = remaining activity; value = 118% and 114%
SMILES = CNC1C[S+]2CC[S+]3CC[S+](C1)[Ru-4]321([N]=C=S)[n]2c3ccc(OC)cc3c3c4c(c5cc(F)c[n+]1c5c32)C(=O)NC4=O (centres unmarked); test = KinomeScan; setting = 0.1 µM; how to read = relative to: untreated; quantity = remaining binding; value = 79%
SMILES = NC(=O)[C@@H](O)C[C@H]1CCc2sc3ncnc(O[C@H]4CC[C@H](N5CCOCC5)CC4)c3c21; test = enzyme activity, inhibitor; setting = 10 µM; quantity = inhibition; value = -21%
SMILES = C=CC(=O)N1CCCC(n2c(=O)c3ncccc3n(Cc3ccc(Oc4ccccc4)cc3)c2=O)C1 (centres unmarked); test = cell-free assay, competition with immobilised ligand; setting = 1 µM; quantity = remaining binding; value = 65%
SMILES = CN1CC[C@@H](COc2cnc(C#N)cc2-c2ccn3nc(NC(=O)C4CC4)cc3c2)C1; test = enzyme activity, inhibitor; setting = 1 µM; quantity = inhibition; value = -27%
SMILES = CNC(=O)C[C@H](Cc1ccc(C#N)cc1)NC(=O)c1cc(-c2ccc(CN[C@H](C)c3ccc(C)cc3)o2)ccc1Cl; test = enzyme activity, inhibitor; setting = 1 µM; quantity = activity vs control; value = 117%
SMILES = CCn1cc(C(=O)O)c(=O)c2c(N)c(F)c(NC3CCCCC3)cc21; test = kinase activity; setting = 0.1 µM, with: ATP at Km; quantity = inhibition; value = 4.8%

Some of these lines once more:
SMILES = C=CC(=O)N1CCCC(n2c(=O)c3ncccc3n(Cc3ccc(Oc4ccccc4)cc3)c2=O)C1 (centres unmarked); test = cell-free assay, competition with immobilised ligand; setting = 1 µM; quantity = remaining binding; value = 65%
SMILES = CN1CC[C@@H](COc2cnc(C#N)cc2-c2ccn3nc(NC(=O)C4CC4)cc3c2)C1; test = enzyme activity, inhibitor; setting = 1 µM; quantity = inhibition; value = -27%
